Assay results from different studies.
Each numbered part is a random draw from the data of one study; scales do not carry over between parts.
Sequence of UniProt P11362 (whole entry, looked up): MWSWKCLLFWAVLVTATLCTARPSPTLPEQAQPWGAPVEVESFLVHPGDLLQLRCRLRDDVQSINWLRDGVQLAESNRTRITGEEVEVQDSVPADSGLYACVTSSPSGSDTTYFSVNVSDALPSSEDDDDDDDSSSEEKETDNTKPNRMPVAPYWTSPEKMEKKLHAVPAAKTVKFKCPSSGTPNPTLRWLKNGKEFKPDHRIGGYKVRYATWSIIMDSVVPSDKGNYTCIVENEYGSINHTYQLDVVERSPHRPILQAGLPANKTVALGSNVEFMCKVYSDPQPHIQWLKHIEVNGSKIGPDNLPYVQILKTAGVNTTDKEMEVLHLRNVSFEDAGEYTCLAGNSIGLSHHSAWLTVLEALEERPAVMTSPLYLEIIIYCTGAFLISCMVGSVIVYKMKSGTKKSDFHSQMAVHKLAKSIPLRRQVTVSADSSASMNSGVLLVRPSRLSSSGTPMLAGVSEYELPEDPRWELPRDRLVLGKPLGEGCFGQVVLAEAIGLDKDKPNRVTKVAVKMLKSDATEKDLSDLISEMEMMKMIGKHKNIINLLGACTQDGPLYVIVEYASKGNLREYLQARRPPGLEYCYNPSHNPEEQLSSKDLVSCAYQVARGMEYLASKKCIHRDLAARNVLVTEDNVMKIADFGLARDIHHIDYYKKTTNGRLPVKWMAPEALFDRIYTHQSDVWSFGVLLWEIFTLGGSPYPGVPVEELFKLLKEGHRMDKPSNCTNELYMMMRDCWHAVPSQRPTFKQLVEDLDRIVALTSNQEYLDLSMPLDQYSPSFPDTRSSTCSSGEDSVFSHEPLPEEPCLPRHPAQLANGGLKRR
Sequence of UniProt Q9HC98 (whole entry, looked up): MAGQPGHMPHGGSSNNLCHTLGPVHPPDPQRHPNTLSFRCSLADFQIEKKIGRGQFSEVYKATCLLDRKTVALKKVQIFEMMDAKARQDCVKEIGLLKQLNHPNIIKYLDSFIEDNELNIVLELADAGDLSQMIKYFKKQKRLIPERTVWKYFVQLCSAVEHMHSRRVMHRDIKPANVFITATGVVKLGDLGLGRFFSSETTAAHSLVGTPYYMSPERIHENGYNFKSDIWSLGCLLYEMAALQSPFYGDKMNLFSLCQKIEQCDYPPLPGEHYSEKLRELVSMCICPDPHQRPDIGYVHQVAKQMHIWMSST
Sequence of UniProt P10398 (whole entry, looked up): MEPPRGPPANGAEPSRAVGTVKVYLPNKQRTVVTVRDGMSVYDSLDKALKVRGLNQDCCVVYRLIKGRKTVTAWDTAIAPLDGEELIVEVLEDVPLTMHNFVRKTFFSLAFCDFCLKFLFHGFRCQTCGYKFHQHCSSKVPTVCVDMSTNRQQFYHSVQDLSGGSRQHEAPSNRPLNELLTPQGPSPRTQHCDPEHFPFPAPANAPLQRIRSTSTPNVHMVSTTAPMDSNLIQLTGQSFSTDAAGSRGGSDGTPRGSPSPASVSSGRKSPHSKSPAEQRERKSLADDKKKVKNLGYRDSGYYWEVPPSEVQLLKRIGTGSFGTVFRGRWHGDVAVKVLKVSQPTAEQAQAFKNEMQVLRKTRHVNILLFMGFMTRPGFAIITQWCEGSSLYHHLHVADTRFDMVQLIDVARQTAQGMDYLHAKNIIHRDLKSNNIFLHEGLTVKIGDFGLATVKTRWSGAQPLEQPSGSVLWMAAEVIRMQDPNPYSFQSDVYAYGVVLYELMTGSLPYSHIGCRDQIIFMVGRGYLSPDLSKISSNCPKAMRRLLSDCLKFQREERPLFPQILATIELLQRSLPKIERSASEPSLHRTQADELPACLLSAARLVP
Sequence of UniProt Q16513 (whole entry, looked up): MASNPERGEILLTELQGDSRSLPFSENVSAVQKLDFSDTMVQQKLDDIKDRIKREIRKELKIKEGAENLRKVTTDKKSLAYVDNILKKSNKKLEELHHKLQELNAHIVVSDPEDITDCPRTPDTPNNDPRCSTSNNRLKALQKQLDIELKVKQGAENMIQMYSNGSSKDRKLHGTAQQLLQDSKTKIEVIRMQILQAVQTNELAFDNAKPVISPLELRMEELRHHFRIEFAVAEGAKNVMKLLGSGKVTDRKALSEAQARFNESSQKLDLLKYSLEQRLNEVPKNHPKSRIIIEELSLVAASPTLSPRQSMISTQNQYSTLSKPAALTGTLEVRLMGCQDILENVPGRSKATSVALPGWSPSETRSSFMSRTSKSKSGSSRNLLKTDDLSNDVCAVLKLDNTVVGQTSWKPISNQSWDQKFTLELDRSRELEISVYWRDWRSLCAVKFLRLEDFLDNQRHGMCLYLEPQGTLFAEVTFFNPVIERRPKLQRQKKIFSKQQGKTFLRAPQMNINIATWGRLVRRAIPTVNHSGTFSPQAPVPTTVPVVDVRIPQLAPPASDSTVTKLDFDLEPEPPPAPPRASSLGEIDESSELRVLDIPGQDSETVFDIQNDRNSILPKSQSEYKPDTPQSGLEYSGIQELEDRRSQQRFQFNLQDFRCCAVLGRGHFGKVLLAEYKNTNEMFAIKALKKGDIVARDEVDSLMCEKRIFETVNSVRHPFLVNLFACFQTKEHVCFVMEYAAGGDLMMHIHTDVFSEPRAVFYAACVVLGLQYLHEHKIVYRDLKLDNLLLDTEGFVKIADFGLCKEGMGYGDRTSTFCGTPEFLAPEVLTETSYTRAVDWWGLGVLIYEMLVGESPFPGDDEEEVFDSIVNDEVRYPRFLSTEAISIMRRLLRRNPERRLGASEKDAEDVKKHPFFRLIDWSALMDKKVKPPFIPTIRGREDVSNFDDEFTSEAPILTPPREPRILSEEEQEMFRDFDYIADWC
Sequence of UniProt P23443 (whole entry, looked up): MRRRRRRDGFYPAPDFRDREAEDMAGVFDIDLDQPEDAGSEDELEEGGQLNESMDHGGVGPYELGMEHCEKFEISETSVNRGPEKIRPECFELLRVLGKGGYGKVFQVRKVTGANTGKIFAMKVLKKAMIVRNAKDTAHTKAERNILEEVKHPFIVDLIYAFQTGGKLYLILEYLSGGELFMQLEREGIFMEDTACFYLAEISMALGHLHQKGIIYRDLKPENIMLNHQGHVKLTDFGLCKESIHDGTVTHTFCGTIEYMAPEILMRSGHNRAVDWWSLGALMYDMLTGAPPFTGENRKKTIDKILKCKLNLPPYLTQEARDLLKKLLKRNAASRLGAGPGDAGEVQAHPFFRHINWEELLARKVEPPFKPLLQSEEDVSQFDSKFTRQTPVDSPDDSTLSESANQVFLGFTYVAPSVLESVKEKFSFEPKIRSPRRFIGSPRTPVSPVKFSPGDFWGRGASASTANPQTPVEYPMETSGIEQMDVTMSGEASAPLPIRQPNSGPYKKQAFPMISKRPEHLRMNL
Sequence of UniProt P80192 (whole entry, looked up): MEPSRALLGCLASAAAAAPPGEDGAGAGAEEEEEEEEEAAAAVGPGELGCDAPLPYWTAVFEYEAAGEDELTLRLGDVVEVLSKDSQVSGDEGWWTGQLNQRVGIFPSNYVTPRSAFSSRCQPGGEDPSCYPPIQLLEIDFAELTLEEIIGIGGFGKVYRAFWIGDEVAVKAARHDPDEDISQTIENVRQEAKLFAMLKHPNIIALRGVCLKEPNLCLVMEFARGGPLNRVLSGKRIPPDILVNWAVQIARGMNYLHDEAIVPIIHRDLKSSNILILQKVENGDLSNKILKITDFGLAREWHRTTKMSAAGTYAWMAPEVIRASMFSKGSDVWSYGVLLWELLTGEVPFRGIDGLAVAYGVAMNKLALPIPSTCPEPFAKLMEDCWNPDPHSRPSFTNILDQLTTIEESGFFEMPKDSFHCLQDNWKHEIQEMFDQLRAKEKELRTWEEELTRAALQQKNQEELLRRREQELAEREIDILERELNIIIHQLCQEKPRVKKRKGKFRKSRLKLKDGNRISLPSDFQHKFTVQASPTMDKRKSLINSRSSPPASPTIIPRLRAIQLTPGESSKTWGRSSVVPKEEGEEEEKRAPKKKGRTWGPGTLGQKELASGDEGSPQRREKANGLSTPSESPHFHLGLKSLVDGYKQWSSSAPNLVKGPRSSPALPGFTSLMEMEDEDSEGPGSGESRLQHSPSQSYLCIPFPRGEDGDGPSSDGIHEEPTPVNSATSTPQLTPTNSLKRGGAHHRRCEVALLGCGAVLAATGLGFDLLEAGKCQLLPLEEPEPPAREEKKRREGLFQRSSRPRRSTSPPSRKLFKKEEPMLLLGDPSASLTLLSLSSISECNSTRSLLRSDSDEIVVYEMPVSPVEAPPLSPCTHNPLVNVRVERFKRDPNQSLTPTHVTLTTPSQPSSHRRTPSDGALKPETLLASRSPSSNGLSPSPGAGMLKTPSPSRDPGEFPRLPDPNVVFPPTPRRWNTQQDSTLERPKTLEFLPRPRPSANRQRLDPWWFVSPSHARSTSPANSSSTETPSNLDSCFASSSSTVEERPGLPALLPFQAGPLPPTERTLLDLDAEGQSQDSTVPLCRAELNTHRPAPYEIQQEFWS
Sequence of UniProt P36896 (whole entry, looked up): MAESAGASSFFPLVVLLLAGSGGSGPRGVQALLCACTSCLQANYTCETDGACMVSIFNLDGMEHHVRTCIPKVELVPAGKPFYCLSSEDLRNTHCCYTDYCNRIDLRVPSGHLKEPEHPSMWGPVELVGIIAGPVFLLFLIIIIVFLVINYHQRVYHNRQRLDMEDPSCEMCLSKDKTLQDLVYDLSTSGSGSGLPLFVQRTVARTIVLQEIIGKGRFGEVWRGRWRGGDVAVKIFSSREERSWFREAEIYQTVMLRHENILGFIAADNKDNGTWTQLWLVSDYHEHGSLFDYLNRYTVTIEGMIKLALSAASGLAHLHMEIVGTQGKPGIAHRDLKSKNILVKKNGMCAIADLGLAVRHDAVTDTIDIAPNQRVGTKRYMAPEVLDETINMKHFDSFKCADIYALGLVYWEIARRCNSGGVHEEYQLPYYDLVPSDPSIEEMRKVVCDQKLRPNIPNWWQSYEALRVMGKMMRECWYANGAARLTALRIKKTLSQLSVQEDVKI

Set 1
Target: RNA binding protein fox-1 homolog 2, RRM domain, GST-SBP tag (RBFOX2, Homo sapiens, UniProt O43251-10, residues 100-194)
Method: RNA Bind-n-Seq
Molecule type: RNA
Matrix: in vitro
Concentration: 365 nM
Setting: natural RNA segment, single round, ends assumed
Reference: no-protein control
Reading: higher = stronger binding
Endpoint: RBNS enrichment (R)
Shared flanks, not repeated: GGGAGUUCUACAGUCCGACGAUC … UGGAAUUCUCGGGUGCCAA
Target sequence (chain): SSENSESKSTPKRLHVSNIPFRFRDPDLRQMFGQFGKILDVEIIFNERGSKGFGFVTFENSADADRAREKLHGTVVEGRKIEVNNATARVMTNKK
GACUUUGUCUGAGCUCAUGACAACAUAUUGCAAAUGGCCGGGCCACUCGUGGCCAGACGGACAGCACUCCUGGCCAGAUGGACCCACCAGUAUCAGCGAGGAGGGGCUUG: 2.41
GAGACCCGCAGGCGGGGCUUAGCCACCCCUCAAACCCAGGGCCCCCUGGCACCUGGCUCUGGCCGUGUUUUCUGGCCAGAGGCCCCCACUUUCCUAACUCGUGCUCCCUU: 0.365
CAGCAGAGAGCCCCAGCCUCACCCCUGAGGAGCACCUGUGGUCUGUCCCCUUGGUCCUGCUUAUGGCUGGACCGGCCCUGCAGGAGGUGGUGGAGCCGUGAAGGAGGCCG: 0.317
UUUGUGUUGGAUUUGUUUUCCAAAUAUGUGUGUAUGUAGACUUCAUGGUAGUGUUUCUUAUUUAUUUGGUUGCUGCUAAGCCUUGACAGUGGUUCACCUUCCUGGGCUGU: 1.4
ACUGAUAUGCUAUCAUUGAGGUUCAUCAAUGAAUUUGUACAUUUCUAGUUCCCUUUGGUGAAGGGAAAAAUGAUGAUUUUGCAAGACCUAGAUUUUGGCUUGGUUUCUUG: 0.528
GUGAUUGCUUUUAUUACAUUAGUUAAGAUGUCUGAGAGACCAUCUCCUAUCUUUUAUUUCAUUCAUAUCCUCCGCCCUUUUUGUCCUAGAGUGAGAGUUUGGAAGGUGUC: 0.543
GCAGGAUAAUUGAUGUUUUAUGUUCUUUUUUGGACUUUAUCUUCUUGCAAAAAUUUCUACAAAAAUUGUUUUCUUCAUCCUUGUGGUGCUUAUUCAUCUGAGCCGUCUCC: 0.527
GCAGGGUGUCUCUCCAACAGCCCGACAGGCCUCAUCUUUUUGGUUGGAUACCUUUGAACUCCAUGGUUACGUGUUAGGUCCACAUUUGUGUUUUUUUCUAGCCUACCUAU: 0.506

Set 2
SMILES: O=C(O)[C@@H]1[C@@H](Cn2nnc3ccccc3c2=O)CC[C@H]1C(=O)c1ccc(OCCC2CCOCC2)cc1
Read-out: cell-free assay
Method: competition with immobilised ligand
Concentration: 1 µM
Endpoint: remaining binding
Receptor-type tyrosine-protein kinase FLT3 (FLT3, Homo sapiens, UniProt P36888, D835V): 93%
Inhibitor of nuclear factor kappa-B kinase subunit alpha (CHUK, Homo sapiens, UniProt O15111): 100%
Tyrosine-protein kinase ABL1, non-phosphorylated (ABL1, Homo sapiens, UniProt P00519, T315I): 100%
Discoidin domain-containing receptor 2 (DDR2, Homo sapiens, UniProt Q16832): 100%
Serine/threonine-protein kinase N2 (PKN2, Homo sapiens, UniProt Q16513): 100%
Ribosomal protein S6 kinase beta-1 (RPS6KB1, Homo sapiens, UniProt P23443): 100%
Epidermal growth factor receptor (EGFR, Homo sapiens, UniProt P00533, A750P/del747-749): 100%
Mast/stem cell growth factor receptor Kit (KIT, Homo sapiens, UniProt P10721, V559D/V654A): 94%
Dual specificity mitogen-activated protein kinase kinase 5 (MAP2K5, Homo sapiens, UniProt Q13163): 73%
Epidermal growth factor receptor (EGFR, Homo sapiens, UniProt P00533, L861Q): 58%
Serine/threonine-protein kinase ULK3 (ULK3, Homo sapiens, UniProt Q6PHR2): 100%
Serine/threonine-protein kinase Chk2 (CHEK2, Homo sapiens, UniProt O96017): 100%
Fibroblast growth factor receptor 1 (FGFR1, Homo sapiens, UniProt P11362): 100%
Ribosomal protein S6 kinase alpha-3, N-terminal kinase domain (RPS6KA3, Homo sapiens, UniProt P51812): 100%
Myosin light chain kinase (MYLK3, Homo sapiens, UniProt Q32MK0): 72%
Tyrosine-protein kinase ABL1, phosphorylated (ABL1, Homo sapiens, UniProt P00519, H396P): 84%
Non-receptor tyrosine-protein kinase TYK2, JH1 (TYK2, Homo sapiens, UniProt P29597): 58%
Mitogen-activated protein kinase kinase kinase 9 (MAP3K9, Homo sapiens, UniProt P80192): 100%

Set 3
Species: human
Matrix: microsomes or S9
Concentration: 2 µM
Time: 0.5 h
Endpoint: remaining compound
C[C@H](Nc1ncnc2[nH]cnc12)c1cc2cccc(Cl)c2c(=O)n1-c1ccccc1: 89.9%
Cn1ncc(C(=O)O)c1NC(=O)c1cc(Br)nn1-c1ncccc1Cl: 74.8%
O=c1[nH]nc(-c2ccc(OCCN3CCCCC3)cc2)cc1-c1ccc(Cl)cc1: > 100%
COc1ccc(NS(=O)(=O)c2c(C)nn(-c3ccc(-c4ccccc4)nn3)c2C)cc1F: 67.1%
COc1cc(OC)cc(-c2nnc(SCC(=O)NC3CC4CCC3C4)[nH]2)c1 (stereo not drawn): 1.84%

Set 4
SMILES: c1ccc(-c2n[nH]c3c2oc2ccccc23)cc1
Read-out: enzyme activity
Action: inhibitor
Concentration: 0.5 µM
Reference: control
Endpoint: remaining activity
Activin receptor type-1B (ACVR1B, Homo sapiens, UniProt P36896): 96.6%
Fibroblast growth factor receptor 1 (FGFR1, Homo sapiens, UniProt P11362): 85.9%
Casein kinase I isoform gamma-2 (CSNK1G2, Homo sapiens, UniProt P78368): 86.4%
Macrophage-stimulating protein receptor (MST1R, Homo sapiens, UniProt Q04912): 87.3%
Serine/threonine-protein kinase A-Raf (ARAF, Homo sapiens, UniProt P10398): 93.8%
Angiopoietin-1 receptor (TEK, Homo sapiens, UniProt Q02763): 96.8%
Mitogen-activated protein kinase kinase kinase 5 (MAP3K5, Homo sapiens, UniProt Q99683): 97.4%
Tyrosine-protein kinase Lck (LCK, Homo sapiens, UniProt P06239): 99.3%
Mitogen-activated protein kinase kinase kinase 14 (MAP3K14, Homo sapiens, UniProt Q99558): 71.8%
Serine/threonine-protein kinase Nek6 (NEK6, Homo sapiens, UniProt Q9HC98): 99%
Ribosomal protein S6 kinase alpha-2 (RPS6KA2, Homo sapiens, UniProt Q15349): 77.5%
Dual specificity mitogen-activated protein kinase kinase 2 (MAP2K2, Homo sapiens, UniProt P36507): 85.8%
Tyrosine-protein kinase FRK (FRK, Homo sapiens, UniProt P42685): 89.9%
Serine/threonine-protein kinase Nek1 (NEK1, Homo sapiens, UniProt Q96PY6): 95.2%

Repeated from above (set 2):
Ribosomal protein S6 kinase alpha-3, N-terminal kinase domain (RPS6KA3, Homo sapiens, UniProt P51812): 100%
Discoidin domain-containing receptor 2 (DDR2, Homo sapiens, UniProt Q16832): 100%
Mitogen-activated protein kinase kinase kinase 9 (MAP3K9, Homo sapiens, UniProt P80192): 100%
